Experimental data gathered from unrelated publications.
Lines come from different studies, so protocols differ. ± gives the spread as reported.
IDE: Insulin-degrading enzyme (IDE, Homo sapiens, UniProt P14735)
Chain of UniProt P14735 (whole entry, looked up): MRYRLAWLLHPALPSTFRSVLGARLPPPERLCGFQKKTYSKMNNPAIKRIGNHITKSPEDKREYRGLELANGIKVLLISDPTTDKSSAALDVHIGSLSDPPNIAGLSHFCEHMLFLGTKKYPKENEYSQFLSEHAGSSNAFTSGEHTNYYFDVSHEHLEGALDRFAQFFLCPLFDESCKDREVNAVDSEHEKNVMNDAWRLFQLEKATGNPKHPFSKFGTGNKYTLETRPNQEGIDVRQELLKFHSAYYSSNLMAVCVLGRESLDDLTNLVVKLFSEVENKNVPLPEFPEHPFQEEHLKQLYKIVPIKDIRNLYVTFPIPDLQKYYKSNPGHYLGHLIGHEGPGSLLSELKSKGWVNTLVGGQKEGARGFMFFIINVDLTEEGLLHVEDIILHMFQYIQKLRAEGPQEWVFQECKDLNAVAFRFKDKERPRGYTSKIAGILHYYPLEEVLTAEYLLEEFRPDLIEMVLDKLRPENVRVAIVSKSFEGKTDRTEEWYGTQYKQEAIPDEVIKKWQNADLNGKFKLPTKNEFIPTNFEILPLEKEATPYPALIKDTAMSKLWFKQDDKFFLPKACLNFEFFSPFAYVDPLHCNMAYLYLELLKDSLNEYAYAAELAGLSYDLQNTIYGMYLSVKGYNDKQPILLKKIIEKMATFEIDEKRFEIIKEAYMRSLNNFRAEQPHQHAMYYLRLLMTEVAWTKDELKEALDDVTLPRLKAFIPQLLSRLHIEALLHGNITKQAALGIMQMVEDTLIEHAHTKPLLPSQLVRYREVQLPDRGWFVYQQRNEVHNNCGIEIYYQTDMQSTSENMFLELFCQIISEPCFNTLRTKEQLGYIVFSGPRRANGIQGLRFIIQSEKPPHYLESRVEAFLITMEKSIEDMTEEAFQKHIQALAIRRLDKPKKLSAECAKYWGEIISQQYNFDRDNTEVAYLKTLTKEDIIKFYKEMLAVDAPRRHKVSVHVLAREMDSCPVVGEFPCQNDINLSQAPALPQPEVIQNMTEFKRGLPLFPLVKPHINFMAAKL
SLC10A1: Hepatic sodium/bile acid cotransporter (SLC10A1, Homo sapiens, UniProt Q14973)
Chain of UniProt Q14973 (whole entry, looked up): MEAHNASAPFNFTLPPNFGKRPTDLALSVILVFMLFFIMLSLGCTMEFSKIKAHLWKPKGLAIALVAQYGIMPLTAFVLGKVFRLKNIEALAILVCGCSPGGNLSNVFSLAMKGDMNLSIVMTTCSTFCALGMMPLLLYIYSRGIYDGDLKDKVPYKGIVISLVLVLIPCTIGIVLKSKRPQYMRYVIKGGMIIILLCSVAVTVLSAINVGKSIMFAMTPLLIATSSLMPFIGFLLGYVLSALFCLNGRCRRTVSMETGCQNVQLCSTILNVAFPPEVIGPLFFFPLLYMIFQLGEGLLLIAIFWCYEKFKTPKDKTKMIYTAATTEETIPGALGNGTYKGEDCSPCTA
Chain of UniProt P10636 (whole entry, looked up): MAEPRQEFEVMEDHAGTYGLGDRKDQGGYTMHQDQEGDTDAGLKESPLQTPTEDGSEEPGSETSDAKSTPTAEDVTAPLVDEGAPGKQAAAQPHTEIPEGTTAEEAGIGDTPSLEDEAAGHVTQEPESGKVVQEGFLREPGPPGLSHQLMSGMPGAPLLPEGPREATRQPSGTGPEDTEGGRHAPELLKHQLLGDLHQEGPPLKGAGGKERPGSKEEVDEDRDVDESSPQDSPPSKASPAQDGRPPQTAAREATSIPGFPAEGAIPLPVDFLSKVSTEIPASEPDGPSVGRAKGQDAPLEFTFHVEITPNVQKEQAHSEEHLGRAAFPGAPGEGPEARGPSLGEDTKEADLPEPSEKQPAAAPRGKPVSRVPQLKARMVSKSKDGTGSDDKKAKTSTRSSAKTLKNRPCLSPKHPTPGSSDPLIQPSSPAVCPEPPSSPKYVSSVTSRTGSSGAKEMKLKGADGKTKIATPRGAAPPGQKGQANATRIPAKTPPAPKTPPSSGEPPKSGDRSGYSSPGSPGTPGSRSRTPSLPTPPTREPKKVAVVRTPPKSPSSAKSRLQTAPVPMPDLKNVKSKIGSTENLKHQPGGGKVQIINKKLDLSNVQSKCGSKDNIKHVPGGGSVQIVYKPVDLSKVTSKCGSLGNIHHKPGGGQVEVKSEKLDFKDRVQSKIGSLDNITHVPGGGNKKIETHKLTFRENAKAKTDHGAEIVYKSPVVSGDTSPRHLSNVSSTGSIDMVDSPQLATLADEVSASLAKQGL
Chain of UniProt P10635 (whole entry, looked up): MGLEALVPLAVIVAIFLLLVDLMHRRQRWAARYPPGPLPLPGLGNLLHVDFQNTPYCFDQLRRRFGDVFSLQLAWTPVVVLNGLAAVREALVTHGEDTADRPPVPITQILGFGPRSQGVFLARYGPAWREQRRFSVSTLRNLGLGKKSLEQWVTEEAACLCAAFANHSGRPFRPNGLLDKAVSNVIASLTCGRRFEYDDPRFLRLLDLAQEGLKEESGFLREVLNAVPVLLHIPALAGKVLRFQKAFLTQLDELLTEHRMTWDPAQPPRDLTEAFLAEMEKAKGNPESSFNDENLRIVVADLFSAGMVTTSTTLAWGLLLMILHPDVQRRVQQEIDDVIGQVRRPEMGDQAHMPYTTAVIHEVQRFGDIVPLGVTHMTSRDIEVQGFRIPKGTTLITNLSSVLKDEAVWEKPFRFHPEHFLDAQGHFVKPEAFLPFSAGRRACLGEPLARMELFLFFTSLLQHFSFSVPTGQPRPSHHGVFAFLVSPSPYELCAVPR
Chain of UniProt Q99808 (whole entry, looked up): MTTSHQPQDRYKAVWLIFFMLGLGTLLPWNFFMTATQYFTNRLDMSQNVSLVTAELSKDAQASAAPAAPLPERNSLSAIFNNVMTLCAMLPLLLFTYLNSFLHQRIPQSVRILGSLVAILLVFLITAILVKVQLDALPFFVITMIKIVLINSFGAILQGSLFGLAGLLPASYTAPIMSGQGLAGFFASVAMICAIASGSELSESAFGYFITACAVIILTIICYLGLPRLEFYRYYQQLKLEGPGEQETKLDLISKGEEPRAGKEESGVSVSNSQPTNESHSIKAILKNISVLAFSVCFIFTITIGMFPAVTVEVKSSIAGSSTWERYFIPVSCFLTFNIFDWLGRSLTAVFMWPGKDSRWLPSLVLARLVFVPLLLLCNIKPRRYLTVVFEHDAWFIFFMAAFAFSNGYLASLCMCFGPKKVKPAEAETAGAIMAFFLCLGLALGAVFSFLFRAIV
Chain of UniProt P08909 (whole entry, looked up): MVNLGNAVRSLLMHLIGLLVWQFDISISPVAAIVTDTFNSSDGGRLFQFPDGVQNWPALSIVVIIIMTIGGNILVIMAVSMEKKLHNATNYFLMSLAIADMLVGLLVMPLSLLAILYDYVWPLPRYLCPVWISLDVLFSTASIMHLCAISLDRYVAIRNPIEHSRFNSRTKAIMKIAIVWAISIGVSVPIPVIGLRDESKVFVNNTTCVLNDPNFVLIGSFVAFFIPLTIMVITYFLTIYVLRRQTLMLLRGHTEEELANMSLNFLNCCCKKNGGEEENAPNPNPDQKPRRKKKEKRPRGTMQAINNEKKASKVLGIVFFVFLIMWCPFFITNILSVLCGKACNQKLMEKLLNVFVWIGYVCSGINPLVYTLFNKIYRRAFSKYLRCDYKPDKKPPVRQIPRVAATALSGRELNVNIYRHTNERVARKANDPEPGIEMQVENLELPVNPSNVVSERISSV
Chain of UniProt P28074 (whole entry, looked up): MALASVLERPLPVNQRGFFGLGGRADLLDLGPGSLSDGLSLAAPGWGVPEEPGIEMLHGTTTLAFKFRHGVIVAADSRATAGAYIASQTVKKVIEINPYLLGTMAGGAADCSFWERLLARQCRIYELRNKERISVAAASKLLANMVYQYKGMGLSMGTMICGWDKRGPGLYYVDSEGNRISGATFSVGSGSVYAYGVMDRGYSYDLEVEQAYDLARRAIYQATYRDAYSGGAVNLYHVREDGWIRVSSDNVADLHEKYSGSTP
Chain of UniProt O15151 (whole entry, looked up): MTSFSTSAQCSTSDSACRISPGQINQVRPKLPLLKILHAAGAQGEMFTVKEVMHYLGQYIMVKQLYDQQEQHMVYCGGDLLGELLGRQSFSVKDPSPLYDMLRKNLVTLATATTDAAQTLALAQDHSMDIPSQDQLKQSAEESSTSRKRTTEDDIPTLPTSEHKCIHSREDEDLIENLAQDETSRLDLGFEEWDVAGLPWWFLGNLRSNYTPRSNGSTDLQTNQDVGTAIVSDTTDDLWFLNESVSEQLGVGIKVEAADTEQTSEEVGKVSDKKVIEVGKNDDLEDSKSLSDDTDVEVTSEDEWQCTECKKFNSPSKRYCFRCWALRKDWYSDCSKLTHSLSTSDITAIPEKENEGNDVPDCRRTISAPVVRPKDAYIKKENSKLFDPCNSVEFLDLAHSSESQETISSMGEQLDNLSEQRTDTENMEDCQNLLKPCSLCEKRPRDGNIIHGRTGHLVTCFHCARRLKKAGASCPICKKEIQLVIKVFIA
Chain of UniProt A3M8H2 (whole entry, looked up): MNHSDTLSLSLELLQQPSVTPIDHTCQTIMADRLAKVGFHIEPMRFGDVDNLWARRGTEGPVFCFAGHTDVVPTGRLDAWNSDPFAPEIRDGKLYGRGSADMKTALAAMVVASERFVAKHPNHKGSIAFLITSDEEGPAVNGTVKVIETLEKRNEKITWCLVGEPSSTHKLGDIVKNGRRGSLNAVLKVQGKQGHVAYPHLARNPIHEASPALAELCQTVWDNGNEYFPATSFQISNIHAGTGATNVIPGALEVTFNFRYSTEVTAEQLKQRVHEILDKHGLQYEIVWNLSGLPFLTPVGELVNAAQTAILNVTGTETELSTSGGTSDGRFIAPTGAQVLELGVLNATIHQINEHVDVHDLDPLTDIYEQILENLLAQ

| SMILES | target | assay | test system | setting | Ki [µM] |
| --- | --- | --- | --- | --- | --- |
| CN(CCn1c(=O)sc2ccccc21)C12CC3CC(CC(C3)C1)C2 | Sigma-2 receptor (Cavia porcellus, UniProt H0V073) | radioligand binding | guinea pig brain | with: [3H]DTG with (+)-pentazocine | 0.0858 ± 0.00802 |
| CCCCCCCCC[C@@H](O)CC(=O)N[C@@H](CC(N)=O)C(=O)N[C@@H](CCC(N)=O)C(=O)N[C@H](C=O)CC(C)C | PSMB5 (Homo sapiens, UniProt P28074) | proteasome chymotrypsin-like activity, inhibitor |  | with: suc-LLVY-AMC, PA28 | 0.00096 |
| On1ccccc1=S | IDE | substrate degradation, inhibitor |  | mean of insulin, Aβ, substrate V | 86 |
| O=C(/C=C/c1ccc([N+](=O)[O-])cc1)c1nc2ccccc2s1 | Microtubule-associated protein tau, fibrils (MAPT, Homo sapiens, UniProt P10636) | fibril binding, thioflavin T competition |  | 1 µM fibrils, with: thioflavin T 4 µM | > 1 |
| O=S(=O)(Nc1cccn(O)c1=S)c1ccsc1 | IDE | substrate degradation, inhibitor |  | mean of insulin, Aβ, substrate V | 15 |
| C[C@H](CCC(=O)NCC(=O)O)[C@H]1CC[C@H]2[C@@H]3[C@H](O)C[C@@H]4C[C@H](O)CC[C@]4(C)[C@H]3CC[C@]12C | SLC10A1 | transporter uptake, inhibitor, radiometric |  |  | 13.2 |
| C[C@H](CS)C(=O)N1CCC[C@H]1C(=O)O | Succinyl-diaminopimelate desuccinylase (dapE, Acinetobacter baumannii, UniProt A3M8H2) | binding, thermal shift |  | native protein | 0.79 ± 0.61 |
| Cn1c2c(c3ccccc31)CN(CCCCNC(=O)c1nc3ccccc3[nH]1)CC2 | 5-hydroxytryptamine receptor 2C (Rattus norvegicus, UniProt P08909) | cell-free assay |  |  | 5.61 |
| C[C@H](CCC(=O)N[C@@H](CCC(=O)OCc1ccccc1)C(=O)O)[C@H]1CC[C@H]2[C@@H]3[C@H](O)C[C@@H]4C[C@H](O)CC[C@]4(C)[C@H]3CC[C@]12C | SLC10A1 | transporter uptake, inhibitor, radiometric |  |  | 3.28 |
| CN1CCC2(CC1)c1ccccc1N(Cc1ccc(C(=O)NO)s1)C2c1cccc(Cl)c1 (stereo not drawn) | Histone deacetylase 8 (Schistosoma mansoni, UniProt A5H660) | enzyme activity, inhibitor, fluorescence |  |  | 0.06 |
| Cc1csc(S(=O)(=O)Nc2cccn(O)c2=S)c1 | IDE | substrate degradation, inhibitor |  | mean of insulin, Aβ, substrate V | 14 |
| C[C@H](CCC(=O)NCC(=O)O)[C@H]1CC[C@H]2[C@@H]3[C@H](O)C[C@@H]4C[C@H](O)CC[C@]4(C)[C@H]3C[C@H](O)[C@]12C | SLC10A1 | transporter uptake, inhibitor, radiometric |  |  | 29.6 |
| CCCN1CCC(c2cccc(S(C)(=O)=O)c2)CC1 | Cytochrome P450 2D6 (CYP2D6, Homo sapiens, UniProt P10635) | enzyme activity, inhibitor | human, liver microsomes | pH 7.4 | 33 |
| NS(=O)(=O)c1cccn(O)c1=S | IDE | substrate degradation, fluorescence polarisation |  | mean of physiological substrates | 58 |
| Nc1ccc(-c2ccc3cc(OCCOCCOCCOCCF)ccc3n2)cc1 | Microtubule-associated protein tau, neurofibrillary tangles (MAPT, Homo sapiens, UniProt P10636) | binding, radioligand competition | AD brain homogenate | 2 h, 37 °C, with: [3H]THK-523 | > 1 |
| O=C(CN(Cc1ccc(Cl)cc1)C(=O)c1cc2ccccc2[nH]1)NC1CCCCC1 | Protein Mdm4 (MDM4, Homo sapiens, UniProt O15151) | p53 binding, inhibitor, fluorescence polarization |  |  | 19 |
| O=S(=O)(Nc1cccn(O)c1=S)C1CC1 | IDE | substrate degradation, fluorescence polarisation |  | mean of physiological substrates | 32 |
| O=c1ccn([C@@H]2O[C@H](CO)[C@@H](O)[C@H]2O)c(=O)[nH]1 | SLC29A1 (Homo sapiens, UniProt Q99808) | transporter uptake, inhibitor, radiometric |  |  | 89 |

For quick reference, copied from above:
| SMILES | target | assay | test system | setting | Ki [µM] |
| --- | --- | --- | --- | --- | --- |
| Cc1csc(S(=O)(=O)Nc2cccn(O)c2=S)c1 | IDE | substrate degradation, inhibitor |  | mean of insulin, Aβ, substrate V | 14 |
| O=S(=O)(Nc1cccn(O)c1=S)C1CC1 | IDE | substrate degradation, fluorescence polarisation |  | mean of physiological substrates | 32 |
